Assay results collected from several papers.
Numbered parts are unrelated; each lists some results of a single study.
Chain of UniProt P10721 (whole entry, unmodified, looked up): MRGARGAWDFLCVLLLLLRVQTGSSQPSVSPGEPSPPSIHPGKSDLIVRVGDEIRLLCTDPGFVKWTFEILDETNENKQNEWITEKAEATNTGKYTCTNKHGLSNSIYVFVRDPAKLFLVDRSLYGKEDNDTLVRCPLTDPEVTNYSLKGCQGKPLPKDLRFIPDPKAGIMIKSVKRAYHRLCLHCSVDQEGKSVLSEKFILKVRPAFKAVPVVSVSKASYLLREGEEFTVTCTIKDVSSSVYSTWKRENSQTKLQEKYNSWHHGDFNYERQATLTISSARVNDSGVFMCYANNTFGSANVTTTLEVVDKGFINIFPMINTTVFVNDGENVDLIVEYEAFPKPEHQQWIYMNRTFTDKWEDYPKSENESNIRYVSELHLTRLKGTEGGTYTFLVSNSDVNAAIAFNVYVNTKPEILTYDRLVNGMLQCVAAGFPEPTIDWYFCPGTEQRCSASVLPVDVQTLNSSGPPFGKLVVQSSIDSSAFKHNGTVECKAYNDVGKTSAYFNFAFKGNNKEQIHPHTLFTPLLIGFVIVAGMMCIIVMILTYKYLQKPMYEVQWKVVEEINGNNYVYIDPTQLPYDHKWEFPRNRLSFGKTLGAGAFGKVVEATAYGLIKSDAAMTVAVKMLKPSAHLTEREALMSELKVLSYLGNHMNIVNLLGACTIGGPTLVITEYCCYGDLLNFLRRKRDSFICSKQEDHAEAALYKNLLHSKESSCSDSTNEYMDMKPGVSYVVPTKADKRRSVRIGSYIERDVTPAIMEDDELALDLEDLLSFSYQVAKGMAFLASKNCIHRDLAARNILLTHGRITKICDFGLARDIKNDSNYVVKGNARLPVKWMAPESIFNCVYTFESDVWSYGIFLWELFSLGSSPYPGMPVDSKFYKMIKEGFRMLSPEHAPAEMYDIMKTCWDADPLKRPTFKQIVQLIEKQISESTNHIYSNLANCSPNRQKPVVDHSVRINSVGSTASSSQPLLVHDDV
Chain of UniProt Q9UHD2 (whole entry, looked up): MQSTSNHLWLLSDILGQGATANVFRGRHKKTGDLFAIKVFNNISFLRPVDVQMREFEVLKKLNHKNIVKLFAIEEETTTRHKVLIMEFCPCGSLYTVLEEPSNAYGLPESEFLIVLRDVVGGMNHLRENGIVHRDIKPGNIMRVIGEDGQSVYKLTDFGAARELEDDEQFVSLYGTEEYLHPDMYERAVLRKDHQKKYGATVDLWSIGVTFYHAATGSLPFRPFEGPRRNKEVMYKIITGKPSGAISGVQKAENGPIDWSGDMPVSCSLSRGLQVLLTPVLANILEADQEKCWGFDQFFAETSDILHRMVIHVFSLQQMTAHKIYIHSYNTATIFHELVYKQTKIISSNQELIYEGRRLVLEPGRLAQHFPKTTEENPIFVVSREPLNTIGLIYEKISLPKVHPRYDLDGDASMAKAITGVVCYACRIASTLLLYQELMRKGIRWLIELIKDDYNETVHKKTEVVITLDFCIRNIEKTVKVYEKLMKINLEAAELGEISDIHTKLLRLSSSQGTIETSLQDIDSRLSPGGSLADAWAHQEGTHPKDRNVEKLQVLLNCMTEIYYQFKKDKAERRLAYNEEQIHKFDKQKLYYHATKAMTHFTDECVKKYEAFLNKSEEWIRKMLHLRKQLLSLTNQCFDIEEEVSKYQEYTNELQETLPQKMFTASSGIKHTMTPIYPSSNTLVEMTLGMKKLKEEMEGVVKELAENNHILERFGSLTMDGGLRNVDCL
Chain of UniProt P00519 (whole entry, unmodified, looked up): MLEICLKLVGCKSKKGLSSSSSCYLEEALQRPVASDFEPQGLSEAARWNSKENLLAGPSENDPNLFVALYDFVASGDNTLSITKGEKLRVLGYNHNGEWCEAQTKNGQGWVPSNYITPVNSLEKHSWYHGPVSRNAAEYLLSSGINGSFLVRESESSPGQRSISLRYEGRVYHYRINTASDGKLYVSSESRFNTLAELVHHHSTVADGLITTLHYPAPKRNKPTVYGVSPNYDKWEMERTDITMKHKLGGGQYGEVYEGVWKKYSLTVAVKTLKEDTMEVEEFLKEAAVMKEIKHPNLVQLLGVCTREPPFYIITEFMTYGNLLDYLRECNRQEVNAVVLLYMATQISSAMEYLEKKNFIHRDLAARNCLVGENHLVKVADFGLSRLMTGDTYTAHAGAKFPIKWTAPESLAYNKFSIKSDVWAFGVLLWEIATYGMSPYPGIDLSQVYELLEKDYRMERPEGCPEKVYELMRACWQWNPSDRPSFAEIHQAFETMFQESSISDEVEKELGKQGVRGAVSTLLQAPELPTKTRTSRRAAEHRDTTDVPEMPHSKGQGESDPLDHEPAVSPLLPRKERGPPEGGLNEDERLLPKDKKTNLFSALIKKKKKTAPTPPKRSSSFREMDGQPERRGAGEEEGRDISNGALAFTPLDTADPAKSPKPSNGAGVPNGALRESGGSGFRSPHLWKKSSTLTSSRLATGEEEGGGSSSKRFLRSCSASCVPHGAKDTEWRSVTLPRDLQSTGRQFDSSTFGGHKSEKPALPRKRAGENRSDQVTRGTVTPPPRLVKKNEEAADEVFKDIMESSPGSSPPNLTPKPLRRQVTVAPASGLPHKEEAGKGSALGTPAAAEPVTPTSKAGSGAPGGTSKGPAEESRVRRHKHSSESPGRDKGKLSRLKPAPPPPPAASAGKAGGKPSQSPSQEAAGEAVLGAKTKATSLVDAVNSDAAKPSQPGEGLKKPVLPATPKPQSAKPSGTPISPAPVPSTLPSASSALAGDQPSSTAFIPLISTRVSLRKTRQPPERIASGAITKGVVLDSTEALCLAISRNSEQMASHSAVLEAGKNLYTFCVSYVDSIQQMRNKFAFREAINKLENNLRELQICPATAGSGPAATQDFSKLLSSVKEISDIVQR
Chain of UniProt Q04759 (whole entry, looked up): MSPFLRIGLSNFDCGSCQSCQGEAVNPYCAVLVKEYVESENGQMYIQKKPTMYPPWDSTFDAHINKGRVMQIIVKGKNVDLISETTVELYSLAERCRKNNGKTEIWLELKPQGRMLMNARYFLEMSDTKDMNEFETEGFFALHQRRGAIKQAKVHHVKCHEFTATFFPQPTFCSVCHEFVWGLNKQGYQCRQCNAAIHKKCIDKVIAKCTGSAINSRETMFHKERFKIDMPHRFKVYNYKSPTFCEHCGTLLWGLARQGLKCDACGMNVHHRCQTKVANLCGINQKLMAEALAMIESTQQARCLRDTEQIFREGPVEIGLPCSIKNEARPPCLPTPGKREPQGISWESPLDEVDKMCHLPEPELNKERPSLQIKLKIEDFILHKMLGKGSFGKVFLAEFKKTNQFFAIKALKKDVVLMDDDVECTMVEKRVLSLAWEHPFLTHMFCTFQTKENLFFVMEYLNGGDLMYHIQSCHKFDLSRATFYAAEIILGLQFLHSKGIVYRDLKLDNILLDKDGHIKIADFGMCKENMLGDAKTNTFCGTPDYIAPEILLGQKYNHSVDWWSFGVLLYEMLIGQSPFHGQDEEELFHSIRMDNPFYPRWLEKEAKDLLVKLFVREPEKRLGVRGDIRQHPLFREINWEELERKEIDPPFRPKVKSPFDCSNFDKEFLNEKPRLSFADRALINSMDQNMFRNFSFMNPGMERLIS
Chain of UniProt Q8NE63 (whole entry, looked up): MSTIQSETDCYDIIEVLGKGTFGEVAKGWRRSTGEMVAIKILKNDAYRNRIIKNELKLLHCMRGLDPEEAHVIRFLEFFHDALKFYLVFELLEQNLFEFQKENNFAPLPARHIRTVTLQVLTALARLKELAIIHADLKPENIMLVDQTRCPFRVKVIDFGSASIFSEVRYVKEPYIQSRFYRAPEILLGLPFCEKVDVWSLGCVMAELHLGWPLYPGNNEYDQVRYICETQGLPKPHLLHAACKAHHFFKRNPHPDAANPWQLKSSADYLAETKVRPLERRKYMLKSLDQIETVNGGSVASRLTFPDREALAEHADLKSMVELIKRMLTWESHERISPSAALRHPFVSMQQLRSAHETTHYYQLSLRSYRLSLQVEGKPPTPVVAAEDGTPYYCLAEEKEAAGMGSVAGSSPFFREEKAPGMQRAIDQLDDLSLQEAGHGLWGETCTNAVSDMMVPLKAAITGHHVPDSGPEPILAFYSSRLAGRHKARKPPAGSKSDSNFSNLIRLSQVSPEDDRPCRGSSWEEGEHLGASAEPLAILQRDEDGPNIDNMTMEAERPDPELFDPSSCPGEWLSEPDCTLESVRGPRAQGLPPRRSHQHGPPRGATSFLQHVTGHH
Chain of UniProt Q9Y6M4 (whole entry, looked up): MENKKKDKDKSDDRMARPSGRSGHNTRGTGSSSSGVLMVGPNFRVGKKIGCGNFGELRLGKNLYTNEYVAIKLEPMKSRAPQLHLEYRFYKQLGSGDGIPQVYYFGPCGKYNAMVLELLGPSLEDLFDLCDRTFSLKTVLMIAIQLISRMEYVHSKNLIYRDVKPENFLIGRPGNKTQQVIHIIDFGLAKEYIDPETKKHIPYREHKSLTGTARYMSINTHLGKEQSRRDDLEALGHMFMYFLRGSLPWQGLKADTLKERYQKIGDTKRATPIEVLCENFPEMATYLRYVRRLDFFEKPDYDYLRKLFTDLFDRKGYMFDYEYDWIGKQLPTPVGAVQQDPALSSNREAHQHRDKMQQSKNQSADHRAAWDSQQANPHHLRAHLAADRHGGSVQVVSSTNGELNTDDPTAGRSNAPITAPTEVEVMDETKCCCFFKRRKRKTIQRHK

Sample 1 — medium: plasma; route: oral
Compound: COc1ccc(-c2c(Nc3ccccn3)[nH]c3c(C4=CCCCC4)c(-c4ccccc4)nn3c2=O)cc1
| technique | species | dose | time | setting | plasma concentration, median [ng/mL] |
| --- | --- | --- | --- | --- | --- |
| LC-MS/MS | human | 50 mg once daily | 0.5 h | cycle 1 | 1160 |
| LC-MS/MS | human | 50 mg once daily | 4 h | cycle 1 | 1490 |
| LC-MS/MS | human | 50 mg once daily | 24 h | cycle 1 | 1150 |
|  | human patients | 200 mg once daily | 0.5 h | cycle 1 | 6600 |
| LC-MS/MS | human | 200 mg twice daily | 8 h |  | 9530 |
| LC-MS/MS | human | 200 mg twice daily | 4 h |  | 11300 |
|  | human patients | 400 mg once daily | 2 h | cycle 1 | 2610 |
|  | human patients | 150 mg once daily | 0.5 h | cycle 1 | 3230 |
| LC-MS/MS | human | 50 mg once daily | 3 h | cycle 1 | 1510 |
|  | human patients | 400 mg once daily | 0 h | cycle 1 | 2090 |

Sample 2 — species: mouse; medium: microsomes or S9; concentration: 2 µM; time: 0.5 h
| Compound | remaining compound |
| --- | --- |
| COc1cc(=O)[nH]cc1C(=O)N1CCCC1C1CCCCC1 (centres unmarked) | 67.2% |
| Cc1nc(-c2ccccc2)nc2sc3c(=O)[nH]cnc3c12 | 13.9% |
| CC(C)CCn1c(N)nc2c1c(=O)nc(O)n2C | 79% |
| CCC1(C(=O)O)CCCN(C(=O)Cc2nc(C)n[nH]2)C1 (centres unmarked) | 84.1% |
| Fc1cnc(Nc2ccccc2Cl)nc1Nc1ccccc1Cl | 61.1% |
| Cc1nc2ccccc2c(=O)n1-c1ccc(Cl)c(O[C@H]2CCN(C)C2)c1 | 67.7% |

Sample 3 — concentration: 1 µM
SMILES: CN(C)c1ncnc(-c2ccc3nc(Nc4cc(CN5CCN(C(=O)CC(F)(F)F)CC5)ccn4)[nH]c3c2)c1Cl
| target | observed | mode | technique | reference | remaining binding [%] |
| --- | --- | --- | --- | --- | --- |
| PRKCQ (Homo sapiens, UniProt Q04759) | cell-free assay |  | competition with immobilised ligand |  | 100 |
| eIF-2-alpha kinase GCN2, C-terminal kinase domain (EIF2AK4, Homo sapiens, UniProt Q9P2K8, S808G) | cell-free assay |  | competition with immobilised ligand |  | 100 |
| Tyrosine-protein kinase ABL1, non-phosphorylated (ABL1, Homo sapiens, UniProt P00519, F317I) | binding |  | competition with immobilised ligand |  | 28 |
| KIT (Homo sapiens, UniProt P10721, V559D) | cell-free assay |  | competition with immobilised ligand |  | 75 |
| TBK1 (Homo sapiens, UniProt Q9UHD2) |  | binder | KINOMEscan competition binding | DMSO | 24 |
| MARK1 (Homo sapiens, UniProt Q9P0L2) | cell-free assay |  | competition with immobilised ligand |  | 100 |
| PIK3CA (Homo sapiens, UniProt P42336, I800L) | cell-free assay |  | competition with immobilised ligand |  | 35 |
| CSNK1G3 (Homo sapiens, UniProt Q9Y6M4) | cell-free assay |  | competition with immobilised ligand |  | 100 |
| PIP4K2C (Homo sapiens, UniProt Q8TBX8) | cell-free assay |  | competition with immobilised ligand |  | 95 |
| FLT3 (Homo sapiens, UniProt P36888, F691L/ITD) | cell-free assay |  | competition with immobilised ligand |  | 35 |
| HIPK4 (Homo sapiens, UniProt Q8NE63) | cell-free assay |  | competition with immobilised ligand |  | 100 |
| Mast/stem cell growth factor receptor Kit, autoinhibited (KIT, Homo sapiens, UniProt P10721) | cell-free assay |  | competition with immobilised ligand |  | 96 |
| PIK3C2G (Homo sapiens, UniProt O75747) | cell-free assay |  | competition with immobilised ligand |  | 83 |
| TRPM6 (Homo sapiens, UniProt Q9BX84) | cell-free assay |  | competition with immobilised ligand |  | 100 |

Sample 4 — observed: enzyme activity; mode: inhibitor; concentration: 0.5 µM; reference: control
Target: Serine/threonine-protein kinase pim-3 (PIM3, Homo sapiens, UniProt Q86V86)
| Structure (SMILES) | remaining activity |
| --- | --- |
| O=S(=O)(NCCNC/C=C/c1ccc(Br)cc1)c1cccc2cnccc12 | 98.3% |
| CCCC(=O)Oc1ccc2[nH]c(C(=O)c3cc4ccccc4[nH]3)cc2c1 | 84.5% |
| Nc1nc(Nc2ccc(S(N)(=O)=O)cc2)nn1C(=O)c1c(F)cccc1F | 102% |
| CCc1[nH]c(-c2ccc(OC)cc2)nc1-c1ccncc1 | 112% |
| CC(C)(C)n1nc(Cc2cccc3ccccc23)c2c(N)ncnc21 | 99.4% |
| Oc1ccc(Nc2nc(-c3ccc(Cl)cc3)cs2)cc1 | 114% |
| COc1ccc(S(=O)(=O)N(CCO)c2ccccc2CN(C)CC=Cc2ccc(Cl)cc2)cc1 | 105% |
| CC[n+]1c(/C=C/N(C)c2ccccc2)n(-c2ccccc2)c2ccc(-c3nc4ccccc4s3)cc21 | 98.8% |
| Cc1ccc(NC2=CC(=O)c3sc(C)nc3C2=O)cc1 | 108% |
| CC(=O)c1ccc(N2CCOCC2)cc1O | 115% |
| CSc1nc(-c2ccnc(N[C@@H](C)c3ccccc3)c2)c(-c2ccc(F)cc2)[nH]1 (racemic) | 95.5% |
| O=C1NC(=O)C(c2c[nH]c3ccccc23)=C1c1c[nH]c2ccccc12 | 32.7% |
| Cc1cc(Nc2nc(-c3ccccc3)nc3ccccc23)n[nH]1 | 130% |
| NC(=O)c1ccc(N(C(N)=O)c2c(F)cccc2F)nc1-c1ccc(F)cc1F | 97.7% |
